Measured values from different studies.
Lines come from different studies, so protocols differ.
U2AF2: U2AF2 148-342 (Homo sapiens, UniProt P26368)
Chain of UniProt P26368 (whole entry, looked up): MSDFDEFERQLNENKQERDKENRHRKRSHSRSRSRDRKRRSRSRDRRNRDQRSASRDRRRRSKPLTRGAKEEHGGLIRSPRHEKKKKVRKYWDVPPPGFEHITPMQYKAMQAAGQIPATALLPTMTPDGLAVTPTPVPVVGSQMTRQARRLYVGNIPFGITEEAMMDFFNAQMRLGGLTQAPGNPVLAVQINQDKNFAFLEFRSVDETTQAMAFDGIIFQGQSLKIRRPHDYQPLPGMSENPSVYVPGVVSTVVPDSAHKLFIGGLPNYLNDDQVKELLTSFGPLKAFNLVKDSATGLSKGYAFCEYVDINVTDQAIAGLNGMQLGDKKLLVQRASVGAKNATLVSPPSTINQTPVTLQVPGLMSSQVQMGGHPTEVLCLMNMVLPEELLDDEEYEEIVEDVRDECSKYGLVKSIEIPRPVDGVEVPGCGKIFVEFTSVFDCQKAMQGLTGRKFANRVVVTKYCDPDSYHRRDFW
B1: ph-p 1397-1577 D33K/D34R (Drosophila melanogaster, UniProt P39769); chain GVGSGETNGLGTGGIVGVDAMALVDRLDEAMAEEKMQTEATPKLSESFPILGASTEVPPMSLPVQAAISAPSPLAMPLGSPLSVALPTLAPLSVVTSGAAPKSSEVNGTDRPPISSWSVDDVSNFIRELPGCQDYVKRFIQQEIDGQALLLLKEKHLVNAMGMKLGPALKIVAKVESIKEV
B2: NINJ2 (Homo sapiens, UniProt Q9NZG7); sequence looked up; chain MESARENIDLQPGSSDPRSQPINLNHYATKKSVAESMLDVALFMSNAMRLKAVLEQGPSSHYYTTLVTLISLSLLLQVVIGVLLVVIARLNLNEVEKQWRLNQLNNAATILVFFTVVINVFITAFGAHKTGFLAARASRNPL
B3: SPOP E50K (Homo sapiens, UniProt O43791); sequence looked up; chain MSRVPSPPPPAEMSSGPVAESWCYTQIKVVKFSYMWTINNFSFCREEMGKVIKSSTFSSGANDKLKWCLRVNPKGLDEESKDYLSLYLLLVSCPKSEVRAKFKFSILNAKGEETKAMESQRAYRFVQGKDWGFKKFIRRDFLLDEANGLLPDDKLTLFCEVSVVQDSVNISGQNTMNMVKVPECRLADELGGLWENSRFTDCCLCVAGQEFQAHKAILAARSPVFSAMFEHEMEESKKNRVEINDVEPEVFKEMMCFIYTGKAPNLDKMADDLLAAADKYALERLKVMCEDALCSNLSVENAAEILILADLHSADQLKTQAVDFINYHASDVLETSGWKSMVVSHPHLVAEAYRSLASAQCPFLGPPRKRLKQS
B4: PTPRM 21-740 (Homo sapiens, UniProt P28827); sequence looked up; chain ETFSGGCLFDEPYSTCGYSQSEGDDFNWEQVNTLTKPTSDPWMPSGSFMLVNASGRPEGQRAHLLLPQLKENDTHCIDFHYFVSSKSNSPPGLLNVYVKVNNGPLGNPIWNISGDPTRTWNRAELAISTFWPNFYQVIFEVITSGHQGYLAIDEVKVLGHPCTRTPHFLRIQNVEVNAGQFATFQCSAIGRTVAGDRLWLQGIDVRDAPLKEIKVTSSRRFIASFNVVNTTKRDAGKYRCMIRTEGGVGISNYAELVVKEPPVPIAPPQLASVGATYLWIQLNANSINGDGPIVAREVEYCTASGSWNDRQPVDSTSYKIGHLDPDTEYEISVLLTRPGEGGTGSPGPALRTRTKCADPMRGPRKLEVVEVKSRQITIRWEPFGYNVTRCHSYNLTVHYCYQVGGQEQVREEVSWDTENSHPQHTITNLSPYTNVSVKLILMNPEGRKESQELIVQTDEDLPGAVPTESIQGSTFEEKIFLQWREPTQTYGVITLYEITYKAVSSFDPEIDLSNQSGRVSKLGNETHFLFFGLYPGTTYSFTIRASTAKGFGPPATNQFTTKISAPSMPAYELETPLNQTDNTVTVMLKPAHSRGAPVSVYQIVVEEERPRRTKKTTEILKCYPVPIHFQNASLLNSQYYFAAEFPADSLQAAQPFTIGDNKTYNGYWNTPLLPYKSYRIYFQAASRANGETKIDCVQVATKGAATPKPVPEPEKQTDHT
B5: DNAJB8 F148S (Homo sapiens, UniProt Q8NHS0); sequence looked up; chain MANYYEVLGVQASASPEDIKKAYRKLALRWHPDKNPDNKEEAEKKFKLVSEAYEVLSDSKKRSLYDRAGCDSWRAGGGASTPYHSPFDTGYTFRNPEDIFREFFGGLDPFSFEFWDSPFNSDRGGRGHGLRGAFSAGFGEFPAFMEASSSFNMLGCSGGSHTTFSSTSFGGSSSGSSGFKSVMSSTEMINGHKVTTKRIVENGQERVEVEEDGQLKSVTVNGKEQLKWMDSK
B6: SPOP R121Q (Homo sapiens, UniProt O43791); sequence looked up; chain MSRVPSPPPPAEMSSGPVAESWCYTQIKVVKFSYMWTINNFSFCREEMGEVIKSSTFSSGANDKLKWCLRVNPKGLDEESKDYLSLYLLLVSCPKSEVRAKFKFSILNAKGEETKAMESQQAYRFVQGKDWGFKKFIRRDFLLDEANGLLPDDKLTLFCEVSVVQDSVNISGQNTMNMVKVPECRLADELGGLWENSRFTDCCLCVAGQEFQAHKAILAARSPVFSAMFEHEMEESKKNRVEINDVEPEVFKEMMCFIYTGKAPNLDKMADDLLAAADKYALERLKVMCEDALCSNLSVENAAEILILADLHSADQLKTQAVDFINYHASDVLETSGWKSMVVSHPHLVAEAYRSLASAQCPFLGPPRKRLKQS
B7: sufS 1-406 (Escherichia coli, UniProt P77444); chain MIFSVDKVRADFPVLSREVNGLPLAYLDSAASAQKPSQVIDAEAEFYRHGYAAVHRGIHTLSAQATEKMENVRKRASLFINARSAEELVFVRGTTEGINLVANSWGNSNVRAGDNIIISQMEHHANIVPWQMLCARVGAELRVIPLNPDGTLQLETLPTLFDEKTRLLAITHVSNVLGTENPLAEMITLAHQHGAKVLVDGAQAVMHHPVDVQALDCDFYVFSGHKLYGPTGIGILYVKEALLQEMPPWEGGGSMIATVSLSEGTTWTKAPWRFEAGTPNTGGIIGLGAALEYVSALGLNNIAEYEQNLMHYALSQLESVPDLTLYGPQNRLGVIAFNLGKHHAYDVGSFLDNYGIAVRTGHHCAMPLMAYYNVPAMCRASLAMYNTHEEVDRLVTGLQRIHRLLG
B8: dlg1 1-97 R44A (Drosophila melanogaster, UniProt P31007); sequence looked up; chain MPVKKQEAHRALELLEDYHARLSEPQDRALRIAIERVIRIFKSALFQALLDIQEFYELTLLDDSKSIQQKTAETLQIATKWEKDGQAVKIADFIKSS
Chain of UniProt P0A031 (whole entry, looked up): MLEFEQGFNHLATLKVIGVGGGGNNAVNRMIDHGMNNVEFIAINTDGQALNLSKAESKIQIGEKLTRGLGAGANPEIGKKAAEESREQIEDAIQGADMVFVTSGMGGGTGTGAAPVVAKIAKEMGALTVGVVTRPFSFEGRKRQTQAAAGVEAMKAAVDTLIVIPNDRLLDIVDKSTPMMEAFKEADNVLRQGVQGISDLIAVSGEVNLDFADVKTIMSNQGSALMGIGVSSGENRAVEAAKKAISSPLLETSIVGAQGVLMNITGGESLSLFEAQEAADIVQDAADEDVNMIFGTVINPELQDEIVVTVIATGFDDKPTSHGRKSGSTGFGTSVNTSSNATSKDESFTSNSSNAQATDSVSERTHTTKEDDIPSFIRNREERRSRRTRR

For `B1 (ph-p 1397-1577 D33K/D34R)`, binding read “binds” (itself; AUC; sedimentation velocity, self-association).
`B2 (NINJ2)`: binding “binds” (itself; SEC, 2D cryo-EM classification).
Under binding, `B3 (SPOP E50K)` is recorded as “binds” (itself; negative-stain TEM).
`IMPDH1 S477D (Homo sapiens) (sequence not shown)`: binding “binds” (itself; negative stain electron microscopy).
With `AUUCUUACU (ssRNA)` the Kd was 5.52 µM (U2AF2; sequencing of bound RNA; RNA; motif only).
`B4 (PTPRM 21-740)` — result for binding: “binds” (itself; bead aggregation, epifluorescence microscopy; self-aggregation).
Under binding, `B5 (DNAJB8 F148S)` is recorded as “binds” (itself; dynamic light scattering; pH 7.4, room temperature).
For `B6 (SPOP R121Q)`, binding read “binds” (itself; negative-stain TEM).
For `B7 (sufS 1-406)`, binding read “binds” (itself; crystal structure).
The Kd of `CCUUAGGUC (ssRNA)` is reported as 4.28 µM (U2AF2; sequencing of bound RNA; RNA; motif only).
Under binding, `ftsZ (Staphylococcus aureus, UniProt P0A031)` is recorded as “binds” (itself; co-sedimentation).
`B8 (dlg1 1-97 R44A)` — result for binding: “binds” (itself; SEC).

For quick reference, copied from above:
Under binding, `B3 (SPOP E50K)` is recorded as “binds” (itself; negative-stain TEM).
`IMPDH1 S477D (Homo sapiens) (sequence not shown)`: binding “binds” (itself; negative stain electron microscopy).
